Measured values gathered from unrelated publications.
Each numbered part is a random draw from the data of one study; scales do not carry over between parts.
UniProt P10721, sequence (whole entry, unmodified, looked up): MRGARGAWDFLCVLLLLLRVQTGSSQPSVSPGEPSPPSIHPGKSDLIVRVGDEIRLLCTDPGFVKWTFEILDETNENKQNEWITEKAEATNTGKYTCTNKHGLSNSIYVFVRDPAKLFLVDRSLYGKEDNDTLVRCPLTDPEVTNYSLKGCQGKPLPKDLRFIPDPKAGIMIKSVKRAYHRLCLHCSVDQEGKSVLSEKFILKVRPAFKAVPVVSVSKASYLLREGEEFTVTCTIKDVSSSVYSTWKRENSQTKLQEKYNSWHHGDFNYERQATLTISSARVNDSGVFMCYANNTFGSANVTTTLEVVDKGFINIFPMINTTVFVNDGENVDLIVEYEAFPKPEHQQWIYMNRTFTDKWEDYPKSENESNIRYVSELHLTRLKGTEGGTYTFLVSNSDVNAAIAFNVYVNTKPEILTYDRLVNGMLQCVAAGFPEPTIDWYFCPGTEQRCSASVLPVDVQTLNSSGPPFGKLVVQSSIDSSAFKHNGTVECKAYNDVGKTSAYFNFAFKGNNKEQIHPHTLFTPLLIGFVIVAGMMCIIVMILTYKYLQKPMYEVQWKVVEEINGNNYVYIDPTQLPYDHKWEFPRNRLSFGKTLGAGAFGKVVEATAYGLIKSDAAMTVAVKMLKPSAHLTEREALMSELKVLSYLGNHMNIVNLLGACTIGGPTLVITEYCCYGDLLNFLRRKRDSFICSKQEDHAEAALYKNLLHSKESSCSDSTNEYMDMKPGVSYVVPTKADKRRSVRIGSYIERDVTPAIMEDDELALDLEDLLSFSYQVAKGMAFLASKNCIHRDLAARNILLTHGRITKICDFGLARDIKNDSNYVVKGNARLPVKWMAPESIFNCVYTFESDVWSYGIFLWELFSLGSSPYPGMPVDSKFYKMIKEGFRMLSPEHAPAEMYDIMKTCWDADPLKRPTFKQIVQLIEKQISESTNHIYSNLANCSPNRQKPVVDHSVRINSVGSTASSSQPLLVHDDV
UniProt O00444, sequence (whole entry, looked up): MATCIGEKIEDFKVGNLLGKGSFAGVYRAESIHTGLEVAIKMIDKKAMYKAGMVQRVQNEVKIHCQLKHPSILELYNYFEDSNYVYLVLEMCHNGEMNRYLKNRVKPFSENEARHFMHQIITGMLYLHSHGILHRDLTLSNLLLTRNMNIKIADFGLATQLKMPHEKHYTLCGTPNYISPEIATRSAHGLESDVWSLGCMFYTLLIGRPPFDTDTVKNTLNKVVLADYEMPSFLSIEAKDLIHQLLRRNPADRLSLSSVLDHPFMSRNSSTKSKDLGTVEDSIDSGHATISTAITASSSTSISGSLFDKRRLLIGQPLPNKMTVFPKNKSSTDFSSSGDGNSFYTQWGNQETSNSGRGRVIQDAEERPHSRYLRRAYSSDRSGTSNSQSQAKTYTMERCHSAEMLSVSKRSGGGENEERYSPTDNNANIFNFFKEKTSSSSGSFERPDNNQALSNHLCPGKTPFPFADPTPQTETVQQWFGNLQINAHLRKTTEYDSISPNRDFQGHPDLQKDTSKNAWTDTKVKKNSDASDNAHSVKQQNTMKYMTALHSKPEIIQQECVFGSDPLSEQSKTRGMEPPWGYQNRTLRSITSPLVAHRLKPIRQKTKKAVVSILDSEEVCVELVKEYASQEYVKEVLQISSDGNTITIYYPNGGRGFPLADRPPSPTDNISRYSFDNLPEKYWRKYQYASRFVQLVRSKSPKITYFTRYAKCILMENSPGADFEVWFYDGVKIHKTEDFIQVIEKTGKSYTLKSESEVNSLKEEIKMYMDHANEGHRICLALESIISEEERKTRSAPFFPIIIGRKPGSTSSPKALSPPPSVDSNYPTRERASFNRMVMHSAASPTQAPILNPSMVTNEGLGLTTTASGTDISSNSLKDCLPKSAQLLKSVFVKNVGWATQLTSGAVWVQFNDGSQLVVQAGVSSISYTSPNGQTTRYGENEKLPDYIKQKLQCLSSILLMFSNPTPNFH
UniProt Q9UM73, sequence (whole entry, unmodified, looked up): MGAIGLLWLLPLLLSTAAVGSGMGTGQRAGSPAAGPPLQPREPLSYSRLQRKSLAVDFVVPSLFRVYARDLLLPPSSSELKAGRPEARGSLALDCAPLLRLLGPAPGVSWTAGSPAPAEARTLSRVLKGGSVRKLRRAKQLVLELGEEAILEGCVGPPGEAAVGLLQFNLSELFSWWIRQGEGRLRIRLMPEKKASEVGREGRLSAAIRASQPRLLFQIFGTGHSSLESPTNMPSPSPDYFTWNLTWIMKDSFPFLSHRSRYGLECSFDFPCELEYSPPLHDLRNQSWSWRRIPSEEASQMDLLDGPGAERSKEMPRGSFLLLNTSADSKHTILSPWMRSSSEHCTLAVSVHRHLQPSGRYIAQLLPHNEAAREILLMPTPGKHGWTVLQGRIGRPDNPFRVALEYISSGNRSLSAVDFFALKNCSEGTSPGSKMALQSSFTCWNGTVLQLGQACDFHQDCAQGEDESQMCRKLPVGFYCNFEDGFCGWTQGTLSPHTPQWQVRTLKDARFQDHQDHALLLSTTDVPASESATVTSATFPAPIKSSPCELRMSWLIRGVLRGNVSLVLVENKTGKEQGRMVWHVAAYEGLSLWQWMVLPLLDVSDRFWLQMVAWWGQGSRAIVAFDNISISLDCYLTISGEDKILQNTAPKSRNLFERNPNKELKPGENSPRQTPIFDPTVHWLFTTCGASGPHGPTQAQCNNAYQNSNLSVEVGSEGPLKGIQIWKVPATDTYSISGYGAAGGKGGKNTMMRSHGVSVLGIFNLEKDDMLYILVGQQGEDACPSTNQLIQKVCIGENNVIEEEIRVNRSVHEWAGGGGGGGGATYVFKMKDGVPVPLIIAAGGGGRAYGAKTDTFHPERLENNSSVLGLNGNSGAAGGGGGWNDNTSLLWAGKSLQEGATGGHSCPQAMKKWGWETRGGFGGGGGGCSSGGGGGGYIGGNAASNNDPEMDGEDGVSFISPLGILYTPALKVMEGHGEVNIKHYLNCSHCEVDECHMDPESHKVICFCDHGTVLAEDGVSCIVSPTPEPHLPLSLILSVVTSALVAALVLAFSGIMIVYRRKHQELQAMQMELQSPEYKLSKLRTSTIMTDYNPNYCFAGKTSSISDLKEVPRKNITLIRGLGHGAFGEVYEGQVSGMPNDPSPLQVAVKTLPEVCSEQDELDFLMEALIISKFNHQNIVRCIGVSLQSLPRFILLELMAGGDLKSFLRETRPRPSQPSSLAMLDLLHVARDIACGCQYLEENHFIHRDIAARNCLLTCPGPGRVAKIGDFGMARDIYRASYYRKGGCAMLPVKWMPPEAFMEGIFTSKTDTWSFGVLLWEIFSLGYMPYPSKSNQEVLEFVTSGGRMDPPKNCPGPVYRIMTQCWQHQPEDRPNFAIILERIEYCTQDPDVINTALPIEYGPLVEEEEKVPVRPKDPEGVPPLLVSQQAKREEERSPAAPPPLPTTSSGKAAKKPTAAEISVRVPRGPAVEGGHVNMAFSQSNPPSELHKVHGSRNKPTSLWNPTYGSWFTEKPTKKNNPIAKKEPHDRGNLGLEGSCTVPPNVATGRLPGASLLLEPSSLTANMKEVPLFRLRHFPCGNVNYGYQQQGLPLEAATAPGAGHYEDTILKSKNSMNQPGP
UniProt P42685, sequence (whole entry, looked up): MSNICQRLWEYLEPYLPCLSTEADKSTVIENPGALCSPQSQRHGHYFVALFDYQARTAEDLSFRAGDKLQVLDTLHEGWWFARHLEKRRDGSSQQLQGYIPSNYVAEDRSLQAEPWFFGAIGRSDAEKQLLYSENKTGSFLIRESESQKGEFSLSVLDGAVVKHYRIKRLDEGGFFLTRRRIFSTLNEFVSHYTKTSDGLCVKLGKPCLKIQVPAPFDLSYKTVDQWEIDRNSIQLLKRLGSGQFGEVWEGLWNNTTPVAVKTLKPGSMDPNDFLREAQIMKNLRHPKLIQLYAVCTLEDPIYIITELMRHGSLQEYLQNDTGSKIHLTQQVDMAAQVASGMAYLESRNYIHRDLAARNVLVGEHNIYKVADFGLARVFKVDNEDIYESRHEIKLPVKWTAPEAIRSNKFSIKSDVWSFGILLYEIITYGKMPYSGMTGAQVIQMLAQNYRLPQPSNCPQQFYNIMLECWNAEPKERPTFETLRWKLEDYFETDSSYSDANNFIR

Study 1 — tested at: 1 µM
SMILES: Cc1nc(Cc2cccc(C(F)(F)F)c2)sc1-c1ccc(C(N)=O)nc1
target | read-out | method | remaining binding [%]
MUSK (Homo sapiens, UniProt O15146) | cell-free assay | competition with immobilised ligand | 89
MAPK1 (Homo sapiens, UniProt P28482) | cell-free assay | competition with immobilised ligand | 95
PRKAA1 (Homo sapiens, UniProt Q13131) | cell-free assay | competition with immobilised ligand | 100
FRK (Homo sapiens, UniProt P42685) | cell-free assay | competition with immobilised ligand | 100
CAMK1D (Homo sapiens, UniProt Q8IU85) | cell-free assay | competition with immobilised ligand | 94
Tyrosine-protein kinase ABL1, phosphorylated (ABL1, Homo sapiens, UniProt P00519, H396P) | cell-free assay | competition with immobilised ligand | 96
PLK4 (Homo sapiens, UniProt O00444) | cell-free assay | competition with immobilised ligand | 90
TESK1 (Homo sapiens, UniProt Q15569) | cell-free assay | competition with immobilised ligand | 88
EPHA4 (Homo sapiens, UniProt P54764) | cell-free assay | competition with immobilised ligand | 100
HIPK4 (Homo sapiens, UniProt Q8NE63) | cell-free assay | competition with immobilised ligand | 100
PRKCI (Homo sapiens, UniProt P41743) | cell-free assay | competition with immobilised ligand | 100
MAP3K20 (Homo sapiens, UniProt Q9NYL2) | cell-free assay | competition with immobilised ligand | 73
CDKL5 (Homo sapiens, UniProt O76039) | binding | competition with immobilised ligand | 100
CDC42BPG (Homo sapiens, UniProt Q6DT37) | – | competition binding | 100
IKBKB (Homo sapiens, UniProt O14920) | cell-free assay | competition with immobilised ligand | 72
KIT (Homo sapiens, UniProt P10721, V559D) | cell-free assay | competition with immobilised ligand | 100
DCLK1 (Homo sapiens, UniProt O15075) | cell-free assay | competition with immobilised ligand | 81
Tyrosine-protein kinase ABL1, non-phosphorylated (ABL1, Homo sapiens, UniProt P00519, F317I) | binding | competition with immobilised ligand | 100
STK32B (Homo sapiens, UniProt Q9NY57) | cell-free assay | competition with immobilised ligand | 69
STK32A (Homo sapiens, UniProt Q8WU08) | binding | competition with immobilised ligand | 76
Mast/stem cell growth factor receptor Kit, autoinhibited (KIT, Homo sapiens, UniProt P10721) | cell-free assay | competition with immobilised ligand | 100
WNK1 (Homo sapiens, UniProt Q9H4A3) | cell-free assay | competition with immobilised ligand | 100
ALK (Homo sapiens, UniProt Q9UM73, L1196M) | cell-free assay | competition with immobilised ligand | 100
CHEK2 (Homo sapiens, UniProt O96017) | cell-free assay | competition with immobilised ligand | 100

Study 2 — method: phase 2a clinical trial
SMILES: CC(C)n1cnc(-c2ccc(F)cc2)c1-c1ncc(C(=O)Nc2ccc(N3CCN(C)CC3)cc2)[nH]1
Host: patients with idiopathic pulmonary fibrosis
measured | dose | setting | patients with treatment-emergent adverse events [%]
protein urine present | 30 mg once daily | Grade 3 | 0
interstitial lung disease | 30 mg once daily | Grade 5 | 0
hepatic function abnormal | 30 mg once daily | Grade 5 | 0
metabolism and nutrition disorders (SOC) | 60 mg once daily | Grade 3 | 0
left bundle branch block | 60 mg once daily | Grade 5 | 0
electrocardiogram QT prolonged | dose not given | Grade 5, all drug arms total | 0
drug-induced liver injury | dose not given | Grade 2, all drug arms total | 0

Study 3 — mode: agonist
Target: Beta-1 adrenergic receptor (ADRB1, Homo sapiens, UniProt P08588)
UniProt P08588, sequence (whole entry, looked up): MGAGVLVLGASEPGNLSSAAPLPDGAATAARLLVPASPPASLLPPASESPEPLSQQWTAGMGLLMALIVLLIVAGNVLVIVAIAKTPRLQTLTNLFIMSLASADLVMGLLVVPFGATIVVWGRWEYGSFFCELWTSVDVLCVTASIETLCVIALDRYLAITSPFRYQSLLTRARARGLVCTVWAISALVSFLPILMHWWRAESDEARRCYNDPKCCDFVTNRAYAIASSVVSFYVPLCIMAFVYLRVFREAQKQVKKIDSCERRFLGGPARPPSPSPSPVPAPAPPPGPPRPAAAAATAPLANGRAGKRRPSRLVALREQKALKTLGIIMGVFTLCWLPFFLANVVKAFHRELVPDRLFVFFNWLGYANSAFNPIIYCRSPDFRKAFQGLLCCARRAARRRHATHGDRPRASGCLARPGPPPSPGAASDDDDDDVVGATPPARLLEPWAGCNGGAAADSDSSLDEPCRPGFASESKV
SMILES | EC50 [µM]
COc1ccccc1N1CCN(C(C)C(=O)Nc2ccc(C(N)=O)cc2)CC1 (centres unmarked) | ≥ 100
c1ccc(-c2ccccc2Nc2cnc3ccc(N4CCOCC4)nn23)cc1 | ≥ 100
COc1ccccc1N1CCC(N2C(=O)[C@H]3CCCN3C2=O)C1 (some centres unmarked) | ≥ 100
O=C(Nc1ccc([C@@H](O)[C@H]2COCC(=O)N2CC2CC2)cc1)c1ccc(F)cc1 | ≥ 100
Cc1[nH]c(/C=C2/C(=O)Nc3ccc(F)cc32)c(C)c1C(=O)NC[C@H](O)CN1CCOCC1 | ≥ 100

Study 4 — read-out: uptake; mode: inhibitor
Target: Synaptic vesicular amine transporter (SLC18A2, Homo sapiens, UniProt Q05940)
UniProt Q05940, sequence (whole entry, looked up): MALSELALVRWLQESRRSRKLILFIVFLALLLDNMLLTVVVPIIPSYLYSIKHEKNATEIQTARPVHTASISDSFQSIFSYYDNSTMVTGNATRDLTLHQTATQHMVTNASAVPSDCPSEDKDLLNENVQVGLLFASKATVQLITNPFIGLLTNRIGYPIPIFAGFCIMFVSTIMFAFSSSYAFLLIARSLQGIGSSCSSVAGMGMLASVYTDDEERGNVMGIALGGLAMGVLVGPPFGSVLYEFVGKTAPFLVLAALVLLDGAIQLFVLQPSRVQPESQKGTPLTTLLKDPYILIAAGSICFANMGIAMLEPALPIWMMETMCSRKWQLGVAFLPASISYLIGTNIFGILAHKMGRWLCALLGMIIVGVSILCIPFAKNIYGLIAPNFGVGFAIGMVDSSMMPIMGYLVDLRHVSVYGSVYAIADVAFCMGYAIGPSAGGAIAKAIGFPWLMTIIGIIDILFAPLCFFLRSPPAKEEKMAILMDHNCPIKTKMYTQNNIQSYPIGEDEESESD
SMILES | IC50 [µM]
COc1cc2c(cc1OC)[C@H]1[C@@H](C)c3ccc(OC)c(OC)c3CN1CC2 | 1.93
CCCN[C@H]1CCc2nc(N)sc2C1 | 2.41
Oc1ccc(CCCCNC[C@H](O)c2ccc(O)c(O)c2)cc1 | 0.02

Study 5 — cell line: A-375; tested at: 100 µM; time: 60 h
Structure (SMILES) | viability
O=C1CC[C@@H](C(=O)N2CSC[C@H]2C(=O)O)N1 | 107%
OC[C@H]1O[C@@H](Oc2ccc(O)cc2)[C@H](O)[C@@H](O)[C@@H]1O | 103%
C[C@H](CCC(=O)O)[C@H]1CC[C@H]2[C@@H]3[C@H](O)C[C@@H]4C[C@H](O)CC[C@]4(C)[C@H]3C[C@H](O)[C@]12C | 103%
CO/N=C(\C(=O)N[C@@H]1C(=O)N2C(C(=O)O)=C(CSc3nnnn3C)CS[C@H]12)c1csc(N)n1 | 102%

Study 6 — organism: Sarcocystis neurona; read-out: parasite growth; tested at: 10 µM; time: 96 h; setting: first screen; relative to: untreated
SMILES | log2 fold change
CCOC(=O)OC(C)OC1=C(C(=O)Nc2ccccn2)N(C)S(=O)(=O)c2ccccc21 (centres unmarked) | 0.2
COc1cc([C@@H]2c3cc4c(cc3[C@@H](O[C@@H]3O[C@@H]5CO[C@@H](C)O[C@H]5[C@H](O)[C@H]3O)[C@H]3COC(=O)[C@H]23)OCO4)cc(OC)c1O | -0.00906
CO[C@@H]1[C@@H](O[C@@H]2O[C@H](C)[C@@H](O[C@H]3C[C@@](C)(O)[C@@H](OC(=O)CC(C)C)[C@H](C)O3)[C@H](N(C)C)[C@H]2O)[C@@H](CC=O)C[C@@H](C)[C@@H](O)/C=C/C=C/C[C@@H](C)OC(=O)C[C@H]1OC(C)=O | -1.33
COc1ccc(/C=C/C(=O)Nc2ccccc2C(=O)O)cc1OC | -1.56
OCc1cccnc1 | 0.07
CN1[C@@H]2CC[C@H]1C[C@@H](OC(=O)c1c[nH]c3ccccc13)C2 | -0.26
CC[C@H](C)C(=O)O[C@H]1C[C@@H](C)C=C2C=C[C@H](C)[C@H](CC[C@@H]3C[C@@H](O)CC(=O)O3)[C@H]21 | 0.074
